Experimental data collected from several papers.
Numbered parts are unrelated; each lists some results of a single study. Substitutions count along the parent as printed.

Set 1
Target: RING finger protein unkempt homolog, zinc fingers 1-6, GST-SBP tag (UNK, Homo sapiens, UniProt Q9C0B0, residues 30-357)
Method: RNA Bind-n-Seq
Molecule type: RNA
Matrix: in vitro
Tested at: not given
Setting: RNA with constant flanks, human and mouse sites, ends assumed
Relative to: input RNA pool
Direction: higher = stronger binding
Shared flanks, not repeated: GGGAGUUCUACAGUCCGACGAUC … CAACAGAGGAUUGAGCAUCA
Residues (chain): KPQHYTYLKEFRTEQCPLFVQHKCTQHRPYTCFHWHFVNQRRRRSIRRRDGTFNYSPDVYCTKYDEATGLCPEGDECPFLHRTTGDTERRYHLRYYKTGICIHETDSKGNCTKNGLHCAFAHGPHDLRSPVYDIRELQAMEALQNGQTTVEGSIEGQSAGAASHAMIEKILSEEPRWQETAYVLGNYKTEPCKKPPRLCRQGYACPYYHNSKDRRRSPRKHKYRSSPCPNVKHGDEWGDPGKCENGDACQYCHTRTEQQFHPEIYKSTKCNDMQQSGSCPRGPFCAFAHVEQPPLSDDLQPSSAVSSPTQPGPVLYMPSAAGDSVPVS
With `UUGCUCAUCUAACUUCAUUGUACCCAGCGUCAUUUUGACAUGUCAUUUCCUAUCUCCCAUUUGCCUUCGGUCCUCAAUGCAUGUCUUUGAGUGACUUCUUAUCUGAAAUUUUGCUACUGG` the bound/input enrichment was 0.235 ratio.
The bound/input enrichment of `AGAGACUUUGUGAGAGAUGCUACGUGGUCUCCACUCAAUCACUCCCUUCUUACCACAGUUGGCUGGGACCAUCAGGUCAUCCACCAUGUUGUGCCCUUAGAGCCUCUCCCAAACCCUGGA` is reported as 0.338 ratio.
`GCUGAGGGAAUAAAUUUAAUCAAGGUCUUUGCAAAAACAGAAGCACAGAAGGGAGCCUAUAUAGAACUAACACUGCAGACUUAUCAAGAAGCACUCAGUCGCCAUUCUGCAGCUUCCUAA` has a bound/input enrichment of 0.427 ratio.
`GGUUCCUUUGGGAGACUUCGACUUGUUGGCGACCUGAUGGCCAAAAGAAAGGAAGAAAAUUUUUCCUCUCCUAAAAAUGCCAAAAGGCCAAGACAAGAAGAAUUGGAGGAUUUUGAUAAA` gave a bound/input enrichment of 0.171 ratio.
For `UCAGAAUAAUUUCAUCACUGGAGUCAGAGCGAUAAAUGAGUUCUGCCUCAAAUCCAGUGAUCUAGAACAACUUCGAAAAAUCAGACGACGAAGUCCCCAUGAAGAUACUGAGUCUUUUAC`, the bound/input enrichment was 0.0511 ratio.
With `AAGUGCUUAUGAUUCAAUUAAUCUACAUUUUGGUAAUCAAUUAUAAAAUACUUUUUAAAUUAGUAUUGGCUAUUUUUUUUUUUUACCCUGGGAAGAUGCUGUCUGCUCACAGGAGUCCCA` the bound/input enrichment was 5.2 ratio.
`CCCUCCGCGGCGCUUUCUCCUCUUGGCGGGGUUGGGAGUCAUGUUUGGUUUUCUCAUUCUUGUUUUUGUUUUGUGUGGUGGGUUCACUGACCGGCGGUGUCCUCUGGCGGUCACCUCUUU` has a bound/input enrichment of 0.553 ratio.
`UCCUCUUCUGCCAGUAGUUUCCUGAGCUCAAACUCUACUUUUUGCAACAAGCAGAAUGUACACAUGUUAAACAAGGGCAUACAAGCAGGUAACUUGGAGAUUGUGAACGGUGCCAAAAAA` gave a bound/input enrichment of 0.147 ratio.

Set 2
Target: CEBPE, bZIP domain (human)
Method: DHFR protein complementation
Matrix: yeast
Setting: single substitutions, most at no-binding floor
Relative to: wild-type JUN-FOS pair
Direction: higher = stronger binding
Starting sequence: JUN, bZIP domain (human); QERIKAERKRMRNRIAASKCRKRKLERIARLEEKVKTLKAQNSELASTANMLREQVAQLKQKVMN; partner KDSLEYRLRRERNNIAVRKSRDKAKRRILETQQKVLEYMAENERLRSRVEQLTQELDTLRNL
The binding fitness of `T48F` is reported as -1.36 natural log.
For `R53D`, the binding fitness was -1.17 natural log.
The binding fitness of `E33P` is reported as -1.53 natural log.
With `E33N` the binding fitness was -1.29 natural log.
For `I28P`, the binding fitness was -1.39 natural log.
For `A49G`, the binding fitness was -1.48 natural log.
`M51E` has a binding fitness of -1.07 natural log.
With `Q55V` the binding fitness was -1.37 natural log.
With `E33G` the binding fitness was -1.26 natural log.
The binding fitness of `E44A` is reported as -1.15 natural log.
`R53H` has a binding fitness of -1.16 natural log.
The binding fitness of `L38D` is reported as -1.53 natural log.
The binding fitness of `L52H` is reported as -1.49 natural log.
`L59S` has a binding fitness of -1.45 natural log.
The binding fitness of `K39H` is reported as -1.29 natural log.
`L45Y` has a binding fitness of -1.31 natural log.

Set 3
Target: CCND2, cyclin fold, Cln2 fusion (human)
Method: yeast growth competition, sequencing
Matrix: yeast
Setting: weak parent motif
Relative to: not given
Direction: higher = stronger binding
Starting sequence: CDKN1C docking peptide (human); TSACRSLFGPVDH; partner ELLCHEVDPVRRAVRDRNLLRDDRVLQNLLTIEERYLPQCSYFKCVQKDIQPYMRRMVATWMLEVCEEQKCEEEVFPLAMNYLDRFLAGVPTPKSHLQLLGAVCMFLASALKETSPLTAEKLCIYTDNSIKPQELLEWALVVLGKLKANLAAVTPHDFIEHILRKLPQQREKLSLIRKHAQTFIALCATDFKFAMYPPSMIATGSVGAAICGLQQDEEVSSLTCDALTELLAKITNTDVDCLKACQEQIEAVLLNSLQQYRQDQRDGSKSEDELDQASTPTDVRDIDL
`TSAARSLFGPVDH [C4A]`: “normalised enrichment score” 0.122.
`TAACRSLFGPVDH [S2A]`: “normalised enrichment score” 0.369.
Under “normalised enrichment score”, `TSACRSAFGPVDH [L7A]` is recorded as -0.0677.
`TSACKSLLGPVDH [R5K F8L]`: “normalised enrichment score” -0.0539.
For `TSACASAFGPVDH [R5A L7A]`, “normalised enrichment score” read -0.122.
`TSACRSLFGAVDH [P10A]`: “normalised enrichment score” 0.275.
`TSACRSLFGPADH [V11A]`: “normalised enrichment score” 0.265.
`TSACASLFGPVDH [R5A]`: “normalised enrichment score” -0.0303.
`TSACKSLFGPVDH [R5K]` — result for “normalised enrichment score”: 0.195.

Set 4
Target: Histone acetyltransferase KAT6A, winged helix 2, GST fusion (KAT6A, Homo sapiens, UniProt Q92794, residues 85-181)
Method: protein binding microarray
Molecule type: double-stranded DNA, one strand shown
Matrix: in vitro
Tested at: not given
Setting: 8-mer, flanks averaged, mean of 2 arrays, mostly near background
Relative to: not given
Direction: higher = stronger binding
Construct (chain): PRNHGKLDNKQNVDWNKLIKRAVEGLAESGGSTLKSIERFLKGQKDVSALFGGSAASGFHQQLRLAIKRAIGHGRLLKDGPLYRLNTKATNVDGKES
The E-score of `CCATCCTA` is reported as -0.0553.
`ATTGTCGG` has an E-score of -0.046.
The E-score of `ATACCGGG` is reported as -0.0105.
`CATGTACA` has an E-score of -0.181.
For `AGGTCACG`, the E-score was -0.146.
For `AAATGATT`, the E-score was 0.0986.
`AGGGTCTA` has an E-score of -0.17.
The E-score of `AAACCGGA` is reported as 0.0843.
With `CCAGAACC` the E-score was -0.09.
With `AAGGCGCG` the E-score was -0.0212.
With `CTCCTGAC` the E-score was 0.011.
`ACAGGGTA` gave an E-score of -0.0295.
For `CGGCGCTC`, the E-score was 0.217.
`CTCGCGGC` has an E-score of 0.183.
The E-score of `AGCGTAAG` is reported as -0.0179.
`CGCACATA` has an E-score of -0.151.
`ACTTAATA` gave an E-score of 0.0564.
With `ACTGCAAG` the E-score was -0.0896.
`AGTGTTAG` has an E-score of 0.0568.
With `GCGTCGCA` the E-score was 0.216.
With `ACGATAGA` the E-score was -0.158.
`CGATAACC` has an E-score of -0.137.
For `ATTCCGGG`, the E-score was 0.156.
The E-score of `CATACAGA` is reported as -0.0156.
The E-score of `AATACCCG` is reported as -0.012.

Set 5
Target: CEP164, C-terminal peptide (human)
Method: DHFR complementation, deep sequencing
Matrix: yeast
Setting: single substitutions, model-inferred values
Relative to: wild type
Direction: higher = weaker binding
Starting sequence: PDZK1, PDZ domain 2 (human); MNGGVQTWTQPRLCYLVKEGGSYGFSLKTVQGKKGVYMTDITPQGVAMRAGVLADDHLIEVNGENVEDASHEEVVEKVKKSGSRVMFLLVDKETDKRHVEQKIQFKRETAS; partner HNRVKVYRF
`S70A` — result for “binding free energy change”: -0.119 kcal/mol.
Under “binding free energy change”, `H71C` is recorded as 0.141 kcal/mol.
`D55H`: “binding free energy change” 0.62 kcal/mol.
`H57W` — result for “binding free energy change”: -0.0804 kcal/mol.
For `Y37T`, “binding free energy change” read -0.211 kcal/mol.
`E76H`: “binding free energy change” 0.0727 kcal/mol.
Under “binding free energy change”, `Y23E` is recorded as 1.06 kcal/mol.
For `S111W`, “binding free energy change” read 0.0157 kcal/mol.
For `G21R`, “binding free energy change” read 0.0344 kcal/mol.
Under “binding free energy change”, `E76I` is recorded as 0.337 kcal/mol.
`I59Y` — result for “binding free energy change”: 0.261 kcal/mol.
`K92H` — result for “binding free energy change”: 0.166 kcal/mol.
